Measured values gathered from unrelated publications.
Each line is one published result; not all experiments were run side by side. “And” joins repeats or separate records; there may be more than shown.

Compound | cell line | test | system | setting | how to read | endpoint | value
CN1CCN(c2ccc(Nc3cc4[nH]c(-c5cccc(F)c5)cc4cn3)cc2)CC1 | SH-SY5Y | cytotoxicity, sulforhodamine B | – | 72 h | – | IC50 | 4.99 µM
C#Cc1ccc(N2CCOCC2)c(/C=N/NC(=O)CCl)c1 | THLE-2 | cytotoxicity, CellTiter-Glo | – | 24 h | – | IC50 | 73 µM
CCCCCCCCCCCCCC(=O)N[C@H]1C(=O)N[C@@H](CN)C(=O)N[C@@H](CO)C(=O)N[C@@H](Cc2ccc(O)cc2)C(=O)O[C@H]1C | HEK293 | MTT | – | 3.2 mg | – | survival | 98%
CCCCCCCCCCCC(=O)N[C@@H](CO)C[C@@H](O)c1cccc(CCCCCC)c1 | HeLa | – | – | 1 µM, lipidomics treatment | – | living cells | 88% and 87% and 89%
CC(=O)NCC(=O)N[C@@H](CCCNC(=N)N)C(=O)N[C@@H](CCCCN)C(=O)N[C@@H](CCCCN)C(=O)N[C@@H](CCCNC(=N)N)C(=O)N[C@@H](CCCNC(=N)N)C(=O)N[C@@H](CCC(N)=O)C(=O)N[C@@H](CCCNC(=N)N)C(=O)N[C@@H](CCCNC(=N)N)C(=O)N[C@@H](CCCNC(=N)N)C(=O)N1CCC[C@H]1C(=O)N[C@@H](CCC(N)=O)C(N)=O | HEK293T | subcellular fractionation LC-MS | cytoplasm | 20 µM, 24 h | – | cytoplasmic peptide amount | 0.0504 nmol and 0.0514 nmol and 0.0528 nmol
CCN(CC)CCCC[C@H](NC(=O)[C@H](CC(C)C)NC(=O)[C@H](C)N(C)C(=O)[C@H](Cc1ccccc1)NC(=O)c1ccc(C(C)(C)C)cc1)C(=O)N[C@@H](CO)C(=O)OC | PC-3 | CellTiter-Glo | – | up to 100 µM, 48 h | – | cytotoxicity | not toxic
CCc1nc2ccc(C(=O)NCCCn3ccnc3)cn2c1N(C)Cc1ccc(N(C)C)cc1 | SH-SY5Y | sulforhodamine B | – | 100 µM, 72 h | – | cell density reduction | 27%
CC[C@H](C)[C@@H]1NC(=O)[C@H](C)NC(=O)[C@@H](NC(=O)[C@H](CC(C)C)NC(=O)[C@@H](NC(=O)[C@H](CCCCN)NC(=O)[C@H](CCCNC(=N)N)NC(=O)[C@@H]2CCCN2C(=O)[C@H](CC(C)C)NC(=O)CN)[C@@H](C)CC)CSSC[C@@H]2NC(=O)[C@H](C(C)C)NC(=O)[C@H](CC(C)C)NC(=O)[C@H](CCCCN)NC(=O)[C@H](CC(C)C)NC(=O)[C@@H]3CCCN3C(=O)CNC(=O)[C@H](CCCCN)NC(=O)[C@H](CSSC[C@@H](C(N)=O)NC(=O)[C@H](CCCCN)NC2=O)NC(=O)[C@H](CCCCN)NC(=O)CNC(=O)[C@H](CCCCN)NC(=O)[C@H](CCCCN)NC(=O)[C@H](CCCCN)NC(=O)[C@H](C)NC1=O | RAW264.7 cells | – | – | 8 µM, 4 h | – | viability reduction | > 50%
CC(=O)N[C@H]1[C@H](Oc2ccc(C[C@H](NC(=O)CN)C(=O)N[C@@H](CCC(=O)O)C(=O)N[C@H](C(=O)N[C@@H](Cc3c[nH]cn3)C(=O)N[C@@H](Cc3c[nH]cn3)C(=O)N[C@@H](CCC(N)=O)C(=O)N[C@@H](CCCCN)C(=O)N[C@@H](CC(C)C)C(=O)N[C@H](C(=O)N[C@@H](Cc3ccccc3)C(=O)N[C@@H](Cc3ccccc3)C(=O)N[C@@H](C)C(N)=O)C(C)C)C(C)C)cc2)O[C@H](CO)[C@H](O)[C@@H]1O | SH-SY5Y | CCK-8 | – | 6.25 µM, 24 h | relative to: untreated | viability | 96.5% and 90.7% and 100%
CCCCN(C=O)c1c(CC)nc2ccc(C(=O)N(C)Cc3ccco3)cn12 | SH-SY5Y | sulforhodamine B | – | concentration not given | – | cytotoxicity | toxic
CCCCCCCCCCCC1CC(=O)N[C@@H]([C@@H](C)O)C(=O)N[C@@H](Cc2ccccc2)C(=O)N[C@@H]([C@@H](C)O)C(=O)N[C@H]([C@H](C)O)C(=O)N[C@@H]([C@@H](C)O)C(=O)N[C@@H](Cc2ccccc2)C(=O)O1 (stereo partly drawn) | HEK293 | MTT | – | 32 mg | – | survival | -4.8%
CCOc1ccc(CN2CC[C@H]2C(=O)NC)cc1-c1cccc(C(=O)NC[C@@H]2COC(C)(C)O2)c1 | Huh-7-ACE2 | CellTiter-Glo | – | 0.0488 µM, 48 h, unit not given | relative to: DMSO | viability | 0.918 and 0.904 and 1.01
CCCCCCCCCCCC1CC(=O)N[C@H]([C@H](C)O)C(=O)N[C@@H](CN)C(=O)N[C@@H](CO)C(=O)N[C@@H](Cc2ccc(O)cc2)C(=O)O1 (stereo partly drawn) | HEK293 | MTT | – | 3.2 mg | – | survival | 98.2%
CN(C)CCCNC(=O)[C@@H]1NC(=O)[C@@H]2Cc3ccc(cc3)Oc3cc4cc(c3O)-c3ccc5c(c[nH]c5c3)C[C@@H](NC(=O)C(NC(=O)CCCCCN)c3ccc(O)cc3)C(=O)N[C@H](c3ccc(O)cc3)C(=O)N[C@H]4C(=O)N[C@@H](C(=O)N2C)c2ccc(cc2)Oc2cc1ccc2O (stereo partly drawn) | human red blood cells | – | PBS | 32 µg/mL, 1 h, pH 7.4, 37 °C | – | hemolysis | 0.95% and 0%
CNC(=O)CC[C@H](Cc1ccccc1)NC(=O)[C@@H](Cc1ccc(Cl)cc1Cl)NC(=O)[C@H](N)Cc1ccccc1[N+](=O)[O-] | Huh-7-ACE2 | CellTiter-Glo | – | 0.0977 µM, 48 h, unit not given | relative to: DMSO | viability | 0.928 and 0.865 and 0.913
CC[C@@H](N[C@@H](C)CC(N)=O)c1ccc(Cl)c(Oc2ccccc2)c1F | Huh-7 with HCV subgenomic replicon | Alamar Blue | – | concentration not given | – | cytotoxicity | no effect
CC(C)C[C@H](NC(=O)[C@H](CC(N)=O)NC(=O)[C@H](CCCNC(=N)N)NC(=O)[C@@H](CC(C)C)NC(=O)[C@H](Cc1ccc(-c2ccccc2)cc1)NC(=O)[C@H](CC(=O)O)NC(=O)[C@H](CCCNC(=N)N)NC(=O)[C@@H](CC(C)C)NC(=O)[C@H](CCCCN)NC(=O)[C@H](CCC(N)=O)NC(=O)[C@@H](NC(=O)[C@@H](CC(C)C)NC(=O)[C@H](CCCCN)NC(=O)[C@H](CCCNC(=N)N)NC(=O)[C@H](Cc1ccc(-c2ccccc2)cc1)NC(=O)CN)C(C)C)C(=O)N[C@H](C(N)=O)C(C)C | HEK293 | cell viability, MTS | – | serum-free | – | LC50 | 20 µM
Cc1ccc(NCCN(C)C)c2c(=O)c3cc(O)ccc3sc12 | HEK293T | loss of viability | – | 0.1 µM | – | cytotoxicity | < 10%
CNC(=O)C[C@H](Cc1ccncc1)NC(=O)[C@@H](Cc1cccc(Br)c1)NC(=O)[C@@H](N)Cc1ccsc1 | Huh-7-ACE2 | CellTiter-Glo | – | 0.195 µM, 48 h, unit not given | relative to: DMSO | viability | 0.961 and 1.08 and 1.24
NC(=S)N/N=C/c1ccc(OCc2cccc(F)c2)cc1 | IMR-32 | MTT | – | 100 µg/mL, 24 h | relative to: untreated control | viability | 76.3%
CNC(=O)C[C@H](Cc1ccncc1)NC(=O)[C@@H](Cc1cccc(Br)c1)NC(=O)[C@@H](N)Cc1cccc(F)c1 | Huh-7-ACE2 | CellTiter-Glo | – | 0.0061 µM, 48 h, unit not given | relative to: DMSO | viability | 1.04 and 0.948 and 1.06
CNC(=S)N/N=C/c1ccc(OCc2ccccc2)cc1 | IMR-32 | MTT | – | 50 µg/mL, 24 h | relative to: untreated control | viability | 97.3%
O[Si](CCCN1CCCCC1)(c1ccc(F)cc1)C1CCCCC1 (stereo not drawn) | HEK293T | cytotoxicity | – | 3 days | – | IC50 | 40.8 µM
CNC(=O)CC1CN(C(=O)c2ccc(C(F)(F)F)cn2)CCN1C(=O)c1cccnn1 (stereo not drawn) | Huh-7-ACE2 | CellTiter-Glo | – | 0.391 µM, 48 h, unit not given | relative to: DMSO | viability | 1.13 and 1.06 and 1.08
